{"data": "Experimental data gathered from unrelated publications", "note": "Protocols differ between the studies behind these lines."}
{"Structure (SMILES)": "CC[C@H](C)[C@@H]1NC(=O)[C@H](Cc2ccc(O)cc2)NC(=O)CSC[C@@H](C(N)=O)NC(=O)[C@H](CC(N)=O)NC(=O)[C@H](Cc2cnc[nH]2)NC(=O)[C@H](Cc2ccc(O)cc2)NC(=O)[C@H](CC(=O)O)NC(=O)[C@H](Cc2ccc(O)cc2)NC(=O)[C@H](CC(C)C)NC(=O)[C@H](CCCNC(=N)N)NC1=O", "matrix": "PBS", "pH": "pH 7.4", "kinetic solubility": "118 µM"}
{"Structure (SMILES)": "O=C(CNC(=O)c1cccc(NC2=NCC(F)(F)CN2)c1)NC[C@H](NC(=O)c1c(Cl)cc(-c2ccccc2)cc1Cl)C(=O)O", "matrix": "aqueous buffer", "pH": "pH 7.4", "kinetic solubility": "47 µM"}
{"Structure (SMILES)": "CCCc1cc2cc(-n3nc(C)c4c3CC(C)(C)CC4=O)cc(N[C@H]3CCOC3)c2c(=O)[nH]1", "matrix": "aqueous buffer", "kinetic solubility": "< 1.56 µM"}
{"Structure (SMILES)": "OCCn1nc(-c2ccccc2)c2c(Cl)c(-c3ccccc3)nnc21", "matrix": "PBS", "time": "2 h", "pH": "pH 7.4", "kinetic solubility": "67 µM"}
{"Structure (SMILES)": "Cc1nc2ccc(S(=O)(=O)n3nc(SCc4ccc(Cl)cc4)nc3N)cc2s1", "matrix": "PBS", "time": "24 h", "pH": "pH 7.4", "kinetic solubility": "1.3 µM"}
{"Structure (SMILES)": "O=C(CNC(=O)c1cccc(NC2=NCCCN2)c1)NC[C@H](NC(=O)c1c(Cl)cc(-c2ccccc2)cc1Cl)C(=O)O", "matrix": "aqueous buffer", "pH": "pH 7.4", "kinetic solubility": "78 µM"}
{"Structure (SMILES)": "O=C(c1ccc(-c2ccccc2)cc1)N1CCCCC1", "matrix": "PBS", "time": "2 h", "pH": "pH 7.4", "temperature": "25 °C", "kinetic solubility": "67 µM"}
{"Structure (SMILES)": "CC[C@H](C)[C@@H]1NC(=O)[C@H](Cc2ccccc2)NC(=O)CCSCc2cccc(c2)CSCCNC(=O)[C@H](Cc2c[nH]cn2)NC(=O)[C@H](Cc2ccc(O)cc2)NC(=O)[C@H](CC(=O)O)NC(=O)[C@H](Cc2ccc(F)cc2)NC(=O)[C@H](CC(C)C)NC(=O)[C@H](CCCCN)NC1=O", "matrix": "PBS", "pH": "pH 7.4", "kinetic solubility": "29.3 µM"}
{"Structure (SMILES)": "C/C(N)=N/C(=N\\S(=O)(=O)c1ccc(C(F)(F)F)cc1)N1C[C@H](c2ccccc2)C(c2ccc(Cl)cc2)=N1", "matrix": "aqueous buffer", "kinetic solubility": "< 1 µg/mL"}
{"Structure (SMILES)": "O=C(N1CCCCC1)C12CC(c3ccccc3)(C1)C2(Br)Br", "matrix": "PBS", "time": "2 h", "pH": "pH 7.4", "temperature": "25 °C", "kinetic solubility": "151 µM"}
{"Structure (SMILES)": "CC[C@H](C)[C@@H]1NC(=O)[C@H](Cc2ccc(O)cc2)NC(=O)CCSCc2cccc(c2)CSCCNC(=O)[C@H](Cc2c[nH]cn2)NC(=O)[C@H](Cc2ccc(O)cc2)NC(=O)[C@H](CC(=O)O)NC(=O)[C@H](Cc2ccc(F)cc2)NC(=O)[C@H](CC(C)C)NC(=O)[C@H](CCCNC(=N)N)NC1=O", "matrix": "PBS", "pH": "pH 7.4", "kinetic solubility": "13.9 µM"}
{"Structure (SMILES)": "CC(C)(O)Cn1nc(-c2ccccc2)c2c(Cl)c(-c3ccccc3)nnc21", "matrix": "PBS", "time": "2 h", "pH": "pH 7.4", "kinetic solubility": "32 µM"}
